{"data": "Measured values of several laboratories", "note": "Numbered parts are unrelated; each lists some results of a single study. Values joined by “and” are separate records of one study, mostly repeats; a detail may differ.", "UniProt Q86UE8, sequence (whole entry, looked up)": "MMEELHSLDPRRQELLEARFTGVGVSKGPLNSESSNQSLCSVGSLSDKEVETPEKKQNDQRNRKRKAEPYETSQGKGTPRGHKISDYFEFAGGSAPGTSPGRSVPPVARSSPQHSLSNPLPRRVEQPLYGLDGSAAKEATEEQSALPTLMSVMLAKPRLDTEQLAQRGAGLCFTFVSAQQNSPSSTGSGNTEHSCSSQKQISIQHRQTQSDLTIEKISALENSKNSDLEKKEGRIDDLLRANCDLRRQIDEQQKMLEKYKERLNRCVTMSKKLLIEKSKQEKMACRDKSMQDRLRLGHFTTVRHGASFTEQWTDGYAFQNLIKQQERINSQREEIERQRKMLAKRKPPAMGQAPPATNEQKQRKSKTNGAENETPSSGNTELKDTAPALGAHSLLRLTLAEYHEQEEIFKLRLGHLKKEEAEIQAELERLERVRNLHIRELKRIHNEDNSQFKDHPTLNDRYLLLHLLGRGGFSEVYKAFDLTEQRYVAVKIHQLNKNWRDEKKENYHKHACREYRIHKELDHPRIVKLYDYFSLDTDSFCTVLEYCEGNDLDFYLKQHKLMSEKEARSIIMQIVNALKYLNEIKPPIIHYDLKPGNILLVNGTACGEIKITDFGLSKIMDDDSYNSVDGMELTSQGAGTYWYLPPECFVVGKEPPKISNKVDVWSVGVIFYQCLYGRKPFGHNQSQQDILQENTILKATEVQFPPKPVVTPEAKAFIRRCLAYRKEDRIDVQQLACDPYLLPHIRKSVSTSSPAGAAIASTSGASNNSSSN", "UniProt Q6P2M8, sequence (whole entry, looked up)": "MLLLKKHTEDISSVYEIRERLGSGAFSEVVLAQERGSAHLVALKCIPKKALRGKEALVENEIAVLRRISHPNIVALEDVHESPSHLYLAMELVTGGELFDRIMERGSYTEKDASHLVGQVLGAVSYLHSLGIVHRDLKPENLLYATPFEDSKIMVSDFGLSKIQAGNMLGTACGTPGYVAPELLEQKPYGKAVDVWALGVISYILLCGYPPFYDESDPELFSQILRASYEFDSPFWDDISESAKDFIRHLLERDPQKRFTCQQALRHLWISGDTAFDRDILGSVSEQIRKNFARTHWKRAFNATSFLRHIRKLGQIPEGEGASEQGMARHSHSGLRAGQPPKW", "UniProt Q8N568, sequence (whole entry, looked up)": "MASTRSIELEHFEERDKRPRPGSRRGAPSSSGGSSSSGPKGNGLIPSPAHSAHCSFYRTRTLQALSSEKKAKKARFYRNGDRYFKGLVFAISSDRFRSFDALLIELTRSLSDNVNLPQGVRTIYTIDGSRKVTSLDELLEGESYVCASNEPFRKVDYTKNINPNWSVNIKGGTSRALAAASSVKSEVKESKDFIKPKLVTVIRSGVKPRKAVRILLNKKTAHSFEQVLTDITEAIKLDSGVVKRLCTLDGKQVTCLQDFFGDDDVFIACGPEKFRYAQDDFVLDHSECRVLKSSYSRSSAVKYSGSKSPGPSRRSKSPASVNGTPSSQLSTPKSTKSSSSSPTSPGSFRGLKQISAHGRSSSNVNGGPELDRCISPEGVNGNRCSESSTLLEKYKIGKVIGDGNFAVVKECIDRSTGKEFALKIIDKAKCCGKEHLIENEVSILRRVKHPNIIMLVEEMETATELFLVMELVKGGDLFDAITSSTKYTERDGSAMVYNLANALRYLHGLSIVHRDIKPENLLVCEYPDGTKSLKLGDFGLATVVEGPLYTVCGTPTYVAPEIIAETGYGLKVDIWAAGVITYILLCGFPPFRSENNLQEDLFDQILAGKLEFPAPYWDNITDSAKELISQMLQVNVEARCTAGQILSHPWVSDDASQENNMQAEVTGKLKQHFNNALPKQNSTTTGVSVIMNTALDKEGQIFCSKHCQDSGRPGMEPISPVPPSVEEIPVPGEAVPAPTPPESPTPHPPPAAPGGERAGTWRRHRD", "UniProt P43403, sequence (whole entry, looked up)": "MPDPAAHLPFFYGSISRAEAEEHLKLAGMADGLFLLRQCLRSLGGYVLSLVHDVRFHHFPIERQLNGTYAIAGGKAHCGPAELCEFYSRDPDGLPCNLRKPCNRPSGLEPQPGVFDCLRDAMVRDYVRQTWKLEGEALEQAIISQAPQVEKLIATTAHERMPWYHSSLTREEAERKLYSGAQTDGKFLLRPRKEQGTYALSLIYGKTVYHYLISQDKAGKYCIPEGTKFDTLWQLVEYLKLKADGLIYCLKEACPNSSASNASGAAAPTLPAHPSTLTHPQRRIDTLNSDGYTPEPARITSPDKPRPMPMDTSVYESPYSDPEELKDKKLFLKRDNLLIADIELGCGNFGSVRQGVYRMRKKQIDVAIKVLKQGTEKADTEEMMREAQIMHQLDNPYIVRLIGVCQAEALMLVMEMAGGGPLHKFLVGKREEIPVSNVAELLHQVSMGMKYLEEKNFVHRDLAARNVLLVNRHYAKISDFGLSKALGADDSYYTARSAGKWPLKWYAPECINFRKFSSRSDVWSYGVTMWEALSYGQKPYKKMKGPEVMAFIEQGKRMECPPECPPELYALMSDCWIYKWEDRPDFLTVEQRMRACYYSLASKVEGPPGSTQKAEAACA", "UniProt P22607, sequence (whole entry, looked up)": "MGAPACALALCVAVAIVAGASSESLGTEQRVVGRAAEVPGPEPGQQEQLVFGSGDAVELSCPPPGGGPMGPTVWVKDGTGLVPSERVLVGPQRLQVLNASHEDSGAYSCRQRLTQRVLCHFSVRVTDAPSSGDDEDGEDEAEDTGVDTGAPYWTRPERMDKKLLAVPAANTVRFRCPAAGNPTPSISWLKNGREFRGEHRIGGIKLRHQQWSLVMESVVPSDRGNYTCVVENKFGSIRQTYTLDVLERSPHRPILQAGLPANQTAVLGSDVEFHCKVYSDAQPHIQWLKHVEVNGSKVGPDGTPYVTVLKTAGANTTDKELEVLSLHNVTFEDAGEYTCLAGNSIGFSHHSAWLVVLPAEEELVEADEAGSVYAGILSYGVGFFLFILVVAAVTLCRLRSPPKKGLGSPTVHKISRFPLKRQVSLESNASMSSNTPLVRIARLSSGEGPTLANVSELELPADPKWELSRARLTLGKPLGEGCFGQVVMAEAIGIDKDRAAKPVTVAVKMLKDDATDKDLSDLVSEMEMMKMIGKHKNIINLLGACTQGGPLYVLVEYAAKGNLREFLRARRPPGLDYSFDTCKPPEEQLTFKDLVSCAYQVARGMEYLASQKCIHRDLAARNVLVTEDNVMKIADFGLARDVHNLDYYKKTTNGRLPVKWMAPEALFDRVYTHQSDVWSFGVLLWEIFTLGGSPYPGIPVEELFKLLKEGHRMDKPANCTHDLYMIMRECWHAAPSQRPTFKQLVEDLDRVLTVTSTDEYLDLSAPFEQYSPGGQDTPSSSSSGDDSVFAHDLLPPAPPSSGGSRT", "UniProt P42681, sequence (whole entry, looked up)": "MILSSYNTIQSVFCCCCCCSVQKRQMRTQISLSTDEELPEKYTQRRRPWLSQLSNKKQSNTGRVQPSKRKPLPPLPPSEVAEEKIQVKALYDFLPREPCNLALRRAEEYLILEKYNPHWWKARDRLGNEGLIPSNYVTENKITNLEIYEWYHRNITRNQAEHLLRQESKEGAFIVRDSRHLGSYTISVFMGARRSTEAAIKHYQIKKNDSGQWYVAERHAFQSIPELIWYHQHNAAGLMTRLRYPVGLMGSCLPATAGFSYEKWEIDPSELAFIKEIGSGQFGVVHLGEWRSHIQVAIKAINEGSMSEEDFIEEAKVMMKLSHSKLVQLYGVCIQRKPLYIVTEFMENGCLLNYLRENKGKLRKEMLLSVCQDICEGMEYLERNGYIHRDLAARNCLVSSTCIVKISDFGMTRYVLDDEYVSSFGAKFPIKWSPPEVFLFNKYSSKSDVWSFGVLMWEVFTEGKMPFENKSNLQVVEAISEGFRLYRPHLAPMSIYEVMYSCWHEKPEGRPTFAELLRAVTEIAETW", "UniProt Q96NX5, sequence (whole entry, looked up)": "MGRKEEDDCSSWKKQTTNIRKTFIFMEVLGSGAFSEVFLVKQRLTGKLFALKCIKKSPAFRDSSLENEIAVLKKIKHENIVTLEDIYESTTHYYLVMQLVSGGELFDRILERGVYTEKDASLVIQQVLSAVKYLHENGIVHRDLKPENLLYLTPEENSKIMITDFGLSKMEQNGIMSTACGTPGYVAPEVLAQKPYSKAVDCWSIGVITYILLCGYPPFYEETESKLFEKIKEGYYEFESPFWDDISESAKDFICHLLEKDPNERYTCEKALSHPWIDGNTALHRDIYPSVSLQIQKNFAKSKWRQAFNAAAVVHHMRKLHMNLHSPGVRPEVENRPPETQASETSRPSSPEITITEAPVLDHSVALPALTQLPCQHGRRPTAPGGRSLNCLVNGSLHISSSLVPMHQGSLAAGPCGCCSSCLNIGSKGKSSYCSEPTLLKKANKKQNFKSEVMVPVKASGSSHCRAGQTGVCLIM"}
{"data": "Set 1", "target": "Calcium/calmodulin-dependent protein kinase type II subunit alpha (CAMK2A, Homo sapiens, UniProt Q9UQM7)", "observed": "enzyme activity", "action": "inhibitor", "concentration": "10 µM", "UniProt Q9UQM7, sequence (whole entry, looked up)": "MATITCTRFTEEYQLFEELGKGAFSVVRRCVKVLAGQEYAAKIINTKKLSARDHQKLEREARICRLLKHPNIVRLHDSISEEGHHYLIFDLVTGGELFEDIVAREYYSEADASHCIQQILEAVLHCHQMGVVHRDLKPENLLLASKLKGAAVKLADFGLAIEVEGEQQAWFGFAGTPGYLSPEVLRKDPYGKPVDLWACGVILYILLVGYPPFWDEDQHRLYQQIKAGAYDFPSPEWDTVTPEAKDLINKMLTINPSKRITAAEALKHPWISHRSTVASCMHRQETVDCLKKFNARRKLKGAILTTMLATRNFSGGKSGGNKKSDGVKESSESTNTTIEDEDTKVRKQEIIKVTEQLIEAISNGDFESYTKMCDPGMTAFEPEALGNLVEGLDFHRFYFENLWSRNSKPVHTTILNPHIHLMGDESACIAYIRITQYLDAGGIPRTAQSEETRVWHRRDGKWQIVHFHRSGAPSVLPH"}
{"Compound": "CN1Cc2c(ccc3c2OCO3)[C@@]2(C)[C@@H](O)Cc3cc4c(cc3[C@@H]12)OCO4", "inhibition [%]": -2}
{"Compound": "COC(=O)C1=CC[C@@]23CC[C@@H]([C@@](C)(/C=C/C=C(\\C)C(=O)O)OC2=O)[C@@]3(O)CC1", "inhibition [%]": -22}
{"Compound": "O=c1oc2cc(O)ccc2c2ccc(O)cc12", "inhibition [%]": -115}
{"Compound": "CN(C)CCCN1c2ccccc2CCc2ccc(Cl)cc21", "inhibition [%]": 3}
{"Compound": "CN(C)CCOC(c1ccc(Cl)cc1)c1ccccn1 (centres unmarked)", "inhibition [%]": -10}
{"Compound": "O=C(O)c1ccc2ccccc2n1", "inhibition [%]": 15}
{"Compound": "CNc1ccccc1C(=O)OC", "inhibition [%]": -19}
{"Compound": "O=C1C[C@@](O)(C(=O)O)[C@@H](C(=O)O)O1", "inhibition [%]": 4}
{"Compound": "COc1cc(C[C@H](C)[C@H](C)Cc2ccc3c(c2)OCO3)ccc1O", "inhibition [%]": -14}
{"Compound": "COc1c2ccoc2cc2oc(C)cc(=O)c12", "inhibition [%]": -16}
{"Compound": "C[C@H](CCC(=O)O)[C@H]1CC[C@H]2[C@@H]3CC[C@@H]4C[C@H](O)CC[C@]4(C)[C@H]3C[C@@H](O)[C@]12C", "inhibition [%]": -43}
{"data": "Set 2", "SMILES": "COc1cccc(-c2cc(=O)c3ccccc3o2)c1N", "observed": "enzyme activity", "action": "inhibitor", "concentration": "0.5 µM", "baseline": "control"}
{"target": "DDR2 (Homo sapiens, UniProt Q16832)", "remaining activity": "92%"}
{"target": "TLK2 (Homo sapiens, UniProt Q86UE8)", "remaining activity": "84.8%"}
{"target": "MINK1 (Homo sapiens, UniProt Q8N4C8)", "remaining activity": "96.2%"}
{"target": "CAMK4 (Homo sapiens, UniProt Q16566)", "remaining activity": "104%"}
{"target": "TXK (Homo sapiens, UniProt P42681)", "remaining activity": "94.6%"}
{"target": "PRKG2 (Homo sapiens, UniProt Q13237)", "remaining activity": "101%"}
{"target": "ROCK1 (Homo sapiens, UniProt Q13464)", "remaining activity": "95.6%"}
{"target": "AKT2 (Homo sapiens, UniProt P31751)", "remaining activity": "97.4%"}
{"target": "Myosin-IIIb (MYO3B, Homo sapiens, UniProt Q8WXR4)", "remaining activity": "97.8%"}
{"target": "CLK4 (Homo sapiens, UniProt Q9HAZ1)", "remaining activity": "86.3%"}
{"target": "PNCK (Homo sapiens, UniProt Q6P2M8)", "remaining activity": "96.8%"}
{"target": "DCLK2 (Homo sapiens, UniProt Q8N568)", "remaining activity": "88.3%"}
{"target": "PAK3 (Homo sapiens, UniProt O75914)", "remaining activity": "90.7%"}
{"target": "MET (Homo sapiens, UniProt P08581)", "remaining activity": "112%"}
{"data": "Set 3", "SMILES": "CC(=O)Nc1c(C(C)=O)c(=O)n(C)c2nc(-c3ccc(Cl)cc3Cl)c(-c3ccc(Cl)cc3)cc12", "observed": "cell-free assay", "method": "competition with immobilised ligand", "concentration": "1 µM"}
{"target": "MAP3K12 (Homo sapiens, UniProt Q12852)", "remaining binding": "100%"}
{"target": "CAMK1G (Homo sapiens, UniProt Q96NX5)", "remaining binding": "100%"}
{"target": "PIP4K2C (Homo sapiens, UniProt Q8TBX8)", "remaining binding": "100%"}
{"target": "FGFR3 (Homo sapiens, UniProt P22607)", "remaining binding": "100%"}
{"target": "TLK2 (Homo sapiens, UniProt Q86UE8)", "remaining binding": "100%"}
{"target": "PIK3CA (Homo sapiens, UniProt P42336, M1043I)", "remaining binding": "100%"}
{"target": "STK32B (Homo sapiens, UniProt Q9NY57)", "remaining binding": "100%"}
{"target": "ZAP70 (Homo sapiens, UniProt P43403)", "remaining binding": "100%"}
{"target": "CDKL3 (Homo sapiens, UniProt Q8IVW4)", "remaining binding": "100%"}
{"data": "Set 4", "cell line": "mouse MPNST tumor cells", "method": "high-content nuclear imaging", "refers to": "cell number", "concentration": "10 µM", "time": "12 h", "notes": "mean of 2 replicates", "baseline": "plate mean", "direction": "higher = more cells"}
{"Compound": "CN(C)CC/C=C1/c2ccccc2COc2ccc(CC(=O)O)cc21", "nuclei count": "2.33 z-score and 1.93 z-score"}
{"Compound": "NC(=O)Nc1cc(-c2cccc(F)c2)sc1C(=O)N[C@H]1CCCNC1", "nuclei count": "-4.69 z-score"}
{"Compound": "CCOc1nc2cccc(C(=O)OCc3oc(=O)oc3C)c2n1Cc1ccc(-c2ccccc2-c2noc(=O)[nH]2)cc1", "nuclei count": "1.54 z-score"}
{"Compound": "O=C(c1ccc(OCCN2CCCCC2)cc1)c1c(-c2ccc(O)cc2)sc2cc(O)ccc12", "nuclei count": "-3.14 z-score and -2.19 z-score"}
{"Compound": "COc1ccc(/C=C/C(=O)Nc2ccccc2C(=O)O)cc1OC", "nuclei count": "0.949 z-score and -0.0696 z-score"}
{"Compound": "CCN(CC)C(=O)Nc1ccc(OCC(O)CNC(C)(C)C)c(C(C)=O)c1 (centres unmarked)", "nuclei count": "0.514 z-score"}
{"Compound": "Cn1ccc2cc3c(cc21)CCN3C(=O)Nc1cccnc1", "nuclei count": "1.28 z-score"}
{"Compound": "CC(=O)OCC(=O)NCCCOc1cccc(CN2CCCCC2)c1", "nuclei count": "-0.0499 z-score"}
{"Compound": "Cc1ccc(NC(=O)c2cccc(C(C)(C)C#N)c2)cc1Nc1ccc2ncn(C)c(=O)c2c1", "nuclei count": "1.92 z-score"}
{"Compound": "Fc1ccc(C(c2ccc(F)cc2)N2CCN(C/C=C/c3ccccc3)CC2)cc1", "nuclei count": "1.59 z-score and 1.96 z-score"}
